Published values pooled from the literature.
± gives the spread as reported.
Adhesin FmlH lectin domain: Adhesin FmlH, lectin domain (Escherichia coli, UniProt Q1RBS0)
CDK6 with cyclin D3: Cyclin-dependent kinase 6, with cyclin D3 (CDK6, Homo sapiens, UniProt Q00534)
Sequence of UniProt Q00534 (whole entry, looked up): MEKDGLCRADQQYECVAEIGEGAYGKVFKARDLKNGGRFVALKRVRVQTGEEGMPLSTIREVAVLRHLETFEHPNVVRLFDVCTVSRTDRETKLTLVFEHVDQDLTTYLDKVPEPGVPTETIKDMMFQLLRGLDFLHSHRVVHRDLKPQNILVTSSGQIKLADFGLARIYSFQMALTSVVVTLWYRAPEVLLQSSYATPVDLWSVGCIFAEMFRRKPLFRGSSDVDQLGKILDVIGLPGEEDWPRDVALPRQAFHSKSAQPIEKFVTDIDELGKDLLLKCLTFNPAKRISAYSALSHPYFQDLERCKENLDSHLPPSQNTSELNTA
ACE: Angiotensin-converting enzyme (ACE, Homo sapiens, UniProt P12821)
Sequence of UniProt P12821 (whole entry, looked up): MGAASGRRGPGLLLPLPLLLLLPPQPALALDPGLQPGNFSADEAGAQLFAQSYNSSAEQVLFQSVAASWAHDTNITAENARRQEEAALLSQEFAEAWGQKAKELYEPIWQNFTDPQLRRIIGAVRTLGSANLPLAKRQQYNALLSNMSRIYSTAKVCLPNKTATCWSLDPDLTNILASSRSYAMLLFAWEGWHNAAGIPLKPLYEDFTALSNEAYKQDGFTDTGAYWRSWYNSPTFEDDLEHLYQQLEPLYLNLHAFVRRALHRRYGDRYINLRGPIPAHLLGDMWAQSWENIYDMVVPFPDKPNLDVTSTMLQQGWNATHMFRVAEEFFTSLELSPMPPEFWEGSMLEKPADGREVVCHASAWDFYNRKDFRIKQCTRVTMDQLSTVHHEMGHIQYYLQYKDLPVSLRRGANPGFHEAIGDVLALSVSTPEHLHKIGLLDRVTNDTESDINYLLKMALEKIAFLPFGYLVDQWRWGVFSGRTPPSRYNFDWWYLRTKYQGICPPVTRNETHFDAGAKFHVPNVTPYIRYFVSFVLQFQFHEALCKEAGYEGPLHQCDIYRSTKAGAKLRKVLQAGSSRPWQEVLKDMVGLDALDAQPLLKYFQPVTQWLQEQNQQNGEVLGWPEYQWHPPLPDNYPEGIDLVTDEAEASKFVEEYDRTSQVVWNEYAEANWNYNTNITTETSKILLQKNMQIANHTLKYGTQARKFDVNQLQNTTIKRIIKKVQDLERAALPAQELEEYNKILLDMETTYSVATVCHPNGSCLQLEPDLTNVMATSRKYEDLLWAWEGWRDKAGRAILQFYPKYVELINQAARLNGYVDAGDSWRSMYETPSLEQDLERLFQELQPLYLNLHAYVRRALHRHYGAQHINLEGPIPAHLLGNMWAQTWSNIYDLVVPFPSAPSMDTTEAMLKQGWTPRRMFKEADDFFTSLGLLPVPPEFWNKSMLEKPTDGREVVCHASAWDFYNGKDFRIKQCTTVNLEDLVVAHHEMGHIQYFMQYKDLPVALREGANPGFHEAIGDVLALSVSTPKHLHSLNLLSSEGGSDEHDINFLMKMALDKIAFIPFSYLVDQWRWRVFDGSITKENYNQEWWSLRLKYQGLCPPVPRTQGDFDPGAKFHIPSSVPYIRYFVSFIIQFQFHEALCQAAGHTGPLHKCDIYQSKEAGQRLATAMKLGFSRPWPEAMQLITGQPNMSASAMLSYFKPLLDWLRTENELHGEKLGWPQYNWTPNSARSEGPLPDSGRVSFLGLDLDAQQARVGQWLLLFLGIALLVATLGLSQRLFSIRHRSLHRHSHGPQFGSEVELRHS
mrcB: Penicillin-binding protein 1B (mrcB, Escherichia coli K-12, UniProt P02919)
Sequence of UniProt P02919 (whole entry, looked up): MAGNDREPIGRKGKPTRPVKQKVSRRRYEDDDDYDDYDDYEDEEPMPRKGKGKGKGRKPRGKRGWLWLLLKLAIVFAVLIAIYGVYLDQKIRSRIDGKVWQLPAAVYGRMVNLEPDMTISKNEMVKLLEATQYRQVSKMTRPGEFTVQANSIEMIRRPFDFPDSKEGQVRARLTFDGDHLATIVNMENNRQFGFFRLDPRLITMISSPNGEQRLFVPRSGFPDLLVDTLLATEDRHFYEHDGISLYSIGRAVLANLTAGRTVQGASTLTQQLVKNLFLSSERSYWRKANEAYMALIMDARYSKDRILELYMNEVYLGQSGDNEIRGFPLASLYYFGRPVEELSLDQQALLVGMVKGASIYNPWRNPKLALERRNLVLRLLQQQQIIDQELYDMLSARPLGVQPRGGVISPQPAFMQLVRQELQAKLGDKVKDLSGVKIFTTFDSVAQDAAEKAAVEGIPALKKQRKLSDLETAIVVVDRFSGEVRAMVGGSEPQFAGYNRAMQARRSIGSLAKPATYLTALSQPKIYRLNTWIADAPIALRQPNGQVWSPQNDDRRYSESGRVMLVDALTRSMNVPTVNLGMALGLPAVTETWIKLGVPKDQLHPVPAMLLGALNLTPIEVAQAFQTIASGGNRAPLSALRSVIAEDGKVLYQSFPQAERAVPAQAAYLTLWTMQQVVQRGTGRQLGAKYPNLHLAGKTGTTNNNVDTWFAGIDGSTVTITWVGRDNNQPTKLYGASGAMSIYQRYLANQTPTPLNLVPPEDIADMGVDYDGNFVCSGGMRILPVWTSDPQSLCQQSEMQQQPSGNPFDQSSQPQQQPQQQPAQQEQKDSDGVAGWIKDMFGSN
Sequence of UniProt O70528 (whole entry, looked up): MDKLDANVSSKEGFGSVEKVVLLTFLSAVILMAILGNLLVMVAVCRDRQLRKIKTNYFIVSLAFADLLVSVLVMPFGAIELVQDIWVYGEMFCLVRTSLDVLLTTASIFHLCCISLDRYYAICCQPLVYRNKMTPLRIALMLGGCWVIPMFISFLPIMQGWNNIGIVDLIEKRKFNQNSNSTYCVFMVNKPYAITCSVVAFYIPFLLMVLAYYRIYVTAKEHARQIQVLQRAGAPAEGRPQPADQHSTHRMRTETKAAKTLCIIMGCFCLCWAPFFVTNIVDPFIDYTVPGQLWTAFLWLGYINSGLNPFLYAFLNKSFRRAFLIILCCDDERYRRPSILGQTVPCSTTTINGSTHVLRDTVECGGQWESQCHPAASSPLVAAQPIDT
Sequence of UniProt P06730 (whole entry, looked up): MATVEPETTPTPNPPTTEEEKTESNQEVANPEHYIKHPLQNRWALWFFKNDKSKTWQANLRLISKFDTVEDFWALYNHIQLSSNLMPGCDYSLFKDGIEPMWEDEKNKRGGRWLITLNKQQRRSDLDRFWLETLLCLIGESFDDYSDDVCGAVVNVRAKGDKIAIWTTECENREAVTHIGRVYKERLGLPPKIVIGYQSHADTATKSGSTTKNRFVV
Sequence of UniProt O75116 (whole entry, looked up): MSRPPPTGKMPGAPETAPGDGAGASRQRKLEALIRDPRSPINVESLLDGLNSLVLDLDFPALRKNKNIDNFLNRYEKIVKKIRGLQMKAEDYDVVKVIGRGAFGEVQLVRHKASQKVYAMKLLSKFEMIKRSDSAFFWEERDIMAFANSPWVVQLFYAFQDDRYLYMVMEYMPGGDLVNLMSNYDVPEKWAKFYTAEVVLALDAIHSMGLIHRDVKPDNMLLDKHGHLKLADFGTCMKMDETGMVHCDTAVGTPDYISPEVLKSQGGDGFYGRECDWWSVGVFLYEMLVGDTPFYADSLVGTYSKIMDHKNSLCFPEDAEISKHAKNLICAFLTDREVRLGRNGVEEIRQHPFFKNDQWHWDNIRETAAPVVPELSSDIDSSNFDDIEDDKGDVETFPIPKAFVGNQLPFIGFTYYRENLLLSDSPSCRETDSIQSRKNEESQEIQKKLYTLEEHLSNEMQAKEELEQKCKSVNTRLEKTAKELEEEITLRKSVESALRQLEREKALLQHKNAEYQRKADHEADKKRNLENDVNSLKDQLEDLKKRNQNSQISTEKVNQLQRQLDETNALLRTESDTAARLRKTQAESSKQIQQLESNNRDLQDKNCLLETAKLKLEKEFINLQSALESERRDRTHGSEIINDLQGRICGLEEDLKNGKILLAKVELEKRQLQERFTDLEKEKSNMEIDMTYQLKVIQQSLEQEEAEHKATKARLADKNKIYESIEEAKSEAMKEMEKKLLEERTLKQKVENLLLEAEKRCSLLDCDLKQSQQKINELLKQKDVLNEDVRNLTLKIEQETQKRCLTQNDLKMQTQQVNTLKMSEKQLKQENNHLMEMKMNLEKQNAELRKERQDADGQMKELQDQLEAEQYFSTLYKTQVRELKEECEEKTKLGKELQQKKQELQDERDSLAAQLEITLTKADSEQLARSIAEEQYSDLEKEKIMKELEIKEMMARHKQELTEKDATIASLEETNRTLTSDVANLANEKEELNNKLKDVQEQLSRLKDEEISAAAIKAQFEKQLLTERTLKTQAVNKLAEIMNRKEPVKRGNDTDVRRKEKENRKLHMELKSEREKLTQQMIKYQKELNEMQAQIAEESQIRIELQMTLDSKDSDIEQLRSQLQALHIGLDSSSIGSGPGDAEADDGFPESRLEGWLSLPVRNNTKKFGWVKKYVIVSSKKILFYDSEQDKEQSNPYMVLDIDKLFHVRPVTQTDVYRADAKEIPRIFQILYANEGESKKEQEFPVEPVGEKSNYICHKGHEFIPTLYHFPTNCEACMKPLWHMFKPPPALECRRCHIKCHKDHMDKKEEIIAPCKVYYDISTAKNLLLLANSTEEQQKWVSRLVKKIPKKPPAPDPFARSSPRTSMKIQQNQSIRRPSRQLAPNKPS
Sequence of UniProt Q8GZ29 (whole entry, looked up): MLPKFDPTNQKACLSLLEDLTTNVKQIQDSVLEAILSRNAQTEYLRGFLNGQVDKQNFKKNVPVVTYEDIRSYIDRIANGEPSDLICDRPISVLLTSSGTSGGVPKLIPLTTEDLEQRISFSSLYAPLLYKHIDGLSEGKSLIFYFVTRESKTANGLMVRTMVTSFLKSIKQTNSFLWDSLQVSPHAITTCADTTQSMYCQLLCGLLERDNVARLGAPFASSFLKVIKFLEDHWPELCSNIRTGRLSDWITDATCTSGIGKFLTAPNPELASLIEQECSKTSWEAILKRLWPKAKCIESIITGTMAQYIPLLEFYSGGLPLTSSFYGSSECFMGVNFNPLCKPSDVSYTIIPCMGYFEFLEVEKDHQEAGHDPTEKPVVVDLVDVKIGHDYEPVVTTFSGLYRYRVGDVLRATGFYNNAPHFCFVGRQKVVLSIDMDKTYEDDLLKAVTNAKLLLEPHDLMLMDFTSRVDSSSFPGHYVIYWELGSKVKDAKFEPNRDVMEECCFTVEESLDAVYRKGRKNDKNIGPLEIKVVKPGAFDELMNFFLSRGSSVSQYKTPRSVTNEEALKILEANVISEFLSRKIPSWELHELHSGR

Structure (SMILES)	target	test	system	setting	inhibition
C=CC(=O)N1C[C@H](C)N(c2nc(OC[C@@]34CCCN3C[C@H](F)C4)nc3c(F)c(-c4ccc(F)c5sc(N)c(C#N)c45)c(C(F)(F)F)cc23)C[C@H]1C	Homeodomain-interacting protein kinase 1 (HIPK1, Homo sapiens, UniProt Q86Z02)	binding, KINOMEscan		1 µM	86%
CN(Cc1cc(C2CC2)on1)C(=O)c1cccc(-c2ccc3c(c2)CCO3)c1	Acetyl-coenzyme A synthetase, cytoplasmic (ACSS2, Homo sapiens, UniProt Q9NR19)	enzyme activity		concentration not given	inactive
COc1cc(C(=O)NC2CCC(N3CCN(CC4CCC5(CCCC5)C4)CC3)CC2)c(F)cc1Nc1ncc2c(n1)N(C1CCCC1(F)F)CC(F)(F)C(=O)N2C (stereo not shown)	Tyrosine-protein kinase ABL1 (ABL1, Homo sapiens, UniProt P00519)	cell-free assay, TR-FRET		10 µM	0.7%
COc1cc(OC2CCN(C)CC2)ccc1Nc1ncc2c(n1)n(C1CCCC1)c(=O)n2C	Mitogen-activated protein kinase 8 (MAPK8, Homo sapiens, UniProt P45983)	enzyme activity, inhibitor		1 µM	> 40%
OC[C@H]1O[C@@H](Oc2cccc3ccccc23)[C@H](O)[C@@H](O)[C@H]1O	Adhesin FmlH lectin domain	binding to desialylated mucin, ELISA competition	UPEC UTI89	100 µM	46%
O=C(CCCCCCOc1ccc(Nc2ncc(F)c(-c3cn(C4CCCCC4)nn3)n2)cc1)NO	CDK6 with cyclin D3	enzyme activity, inhibitor, TR-FRET		5 µM	1.95%
Cc1c(C)c2ccc(O[C@@H]3O[C@H](CO)[C@H](O)[C@H](O)[C@H]3O)cc2oc1=O	Adhesin FmlH lectin domain	binding to desialylated mucin, ELISA competition	UPEC UTI89	100 µM	89%
CC(C)C[C@H](NC(=O)[C@H](CO)NC(=O)[C@H](CCC(=O)O)NC(=O)CNC(=O)[C@H](C)NC(=O)OCc1ccccc1)C(=O)N[C@@H](Cc1ccc(O)cc1)C(=O)N[C@@H](CCC(=O)O)C(N)=O	Adenomatous polyposis coli protein, with Asef (APC, Homo sapiens, UniProt P25054)	binding, fluorescence polarization competition		100 µM	97.1 ± 0.5%
CC(C)Cn1cc(-c2ccnc(Nc3ccc(N4CCN(CCCCCCC(=O)NO)CC4)cc3)n2)nn1	CDK6 with cyclin D3	enzyme activity, inhibitor, TR-FRET		50 nM	6.66%
Nc1ccc(O[C@@H]2O[C@H](CO)[C@H](O)[C@H](O)[C@H]2O)cc1	Adhesin FmlH lectin domain	binding to desialylated mucin, ELISA competition	UPEC UTI89	100 µM	65%
CCOCn1cc(F)c(=O)n(C(=O)c2cccc(C(=O)Oc3cc(OC(=O)c4cc(OC(=O)CC)nc(OC(=O)CC)c4)c(Cl)cn3)c2)c1=O	Dihydropyrimidine dehydrogenase [NADP(+)] (Dpyd, Rattus norvegicus, UniProt O89000)	5-FU degradation, inhibitor	heat-denatured rat liver extract	concentration not given	no inhibition
N#Cc1ccccc1O[C@@H]1O[C@H](CO)[C@H](O)[C@H](O)[C@H]1O	Adhesin FmlH lectin domain	binding to desialylated mucin, ELISA competition	UPEC UTI89	100 µM	95%
CN(C1COC1)C(C)(C)/C=C(\C#N)C(=O)N1CCC[C@H]1Cn1nc(-c2ccc(Oc3ccccc3)cc2F)c2c(N)ncnc21	Tyrosine-protein kinase BTK (BTK, Homo sapiens, UniProt Q06187)			1 µM, mean	> 90%
CC(=O)NCC(=O)N[C@@H](CC(=O)O)C(=O)N[C@@H](Cc1ccc(O)cc1)C(=O)N[C@@H](CO)C(=O)N[C@@H](Cc1c[nH]cn1)C(=O)N[C@H]1CSSC[C@@H](C(=O)N[C@H](C(=O)N[C@@H](Cc2ccc(O)cc2)C(=O)N2CCC[C@H]2C(=O)N[C@@H](CC(=O)O)C(=O)N2CCC[C@H]2C(=O)N[C@@H](CCC(=O)O)C(=O)NCC(=O)NCC(=O)NCC(N)=O)[C@@H](C)O)NC(=O)[C@H](CCCCN)NC(=O)[C@H](Cc2c[nH]c3ccccc23)NC(=O)[C@H](Cc2c[nH]c3ccccc23)NC(=O)[C@@H]2CCCN2C(=O)[C@H](Cc2ccc(O)cc2)NC(=O)[C@H](Cc2ccc(O)cc2)NC(=O)[C@H](CCCNC(=N)N)NC(=O)[C@H](CC(C)C)NC(=O)[C@@H]2CCCN2C(=O)[C@H](CO)NC1=O	ACE			10 µM	15 ± 2%
CC(C)C[C@H](NC(=O)[C@@H]1CCCN1C(=O)[C@@H]1CCCN1C(=O)[C@H](CC(N)=O)NC(=O)[C@@H](N)Cc1ccc(Cl)c(Cl)c1)C(=O)N[C@@H](Cc1c[nH]cn1)C(=O)N[C@@H](CO)C(=O)N[C@H](C(=O)N[C@@H](C)C(=O)O)[C@@H](C)OP(=O)(O)O	Serine/threonine-protein kinase PLK4 (PLK4, Homo sapiens, UniProt O00444)	enzyme activity, inhibitor		10 µM	5.04%
NCc1ccc(NC(=O)c2ccc3ccccc3c2O)cc1	Suppressor of tumorigenicity 14 protein (ST14, Homo sapiens, UniProt Q9Y5Y6)	enzyme activity, inhibitor		10 µM	< 20%
CCCCc1ccc(N2C(=O)/C(=N\NC(=N)N)c3cc([N+](=O)[O-])ccc32)cc1	mrcB	transglycosylation, inhibitor	Escherichia coli	concentration not given, added: dansyl-lipid II	no inhibition

Structure (SMILES)	target	test	system	setting	inhibition
O=C(CCCCCCN1CCN(c2ccc(Nc3ncc(F)c(-c4cn(C5CCCC5)nn4)n3)cc2)CC1)NO	CDK6 with cyclin D3	enzyme activity, inhibitor, TR-FRET		50 nM	9.49%
CCCCc1ccc(N2C(=O)/C(=N\NC(=N)N)c3cc(OC)ccc32)cc1	mrcB	enzyme activity, inhibitor, HPLC		50 µM	64%
CC(=O)N[C@H]1[C@@H](Oc2ccc([N+](=O)[O-])cc2)O[C@H](CO)[C@H](O)[C@@H]1O	Adhesin FmlH lectin domain	binding to desialylated mucin, ELISA competition	UPEC UTI89	100 µM	82%
C[C@@H](N)C1CCN(S(=O)(=O)c2cccc3cnccc23)CC1	Protein kinase C epsilon type (PRKCE, Homo sapiens, UniProt Q02156)	cell-free assay, competition with immobilised ligand		10 µM	> 95%
CCCCN1C(=O)/C(=N\NC(=N)N)c2cc(C)ccc21	mrcB	enzyme activity, inhibitor, HPLC		50 µM	4%
c1ccc2c(c1)Nc1nc3ccccc3nc1N2	NADPH oxidase 2 (CYBB, Homo sapiens, UniProt P04839)	enzyme activity, inhibitor	membrane preparation	100 µM, added: NADPH 40 to 200 µM	40 to 50%
Cc1sc2cc(Cl)ccc2c1-c1ccc(N2CCO[C@H](CNC3CCC3)C2)c(C(=O)O)c1	5-hydroxytryptamine receptor 4 (HTR4, Cavia porcellus, UniProt O70528)	radioligand binding	guinea pig	10 µM	73.5%
CCCCCCCCN1C(=O)/C(=N\NC(=N)N)c2cc(C)ccc21	mrcB	enzyme activity, inhibitor, HPLC		50 µM	71%
CC(C)Cn1cc(-c2ccnc(Nc3ccc(C(=O)Nc4ccccc4N)cc3)n2)nn1	CDK6 with cyclin D3	enzyme activity, inhibitor, TR-FRET		50 nM	6.49%
CC(C)Oc1cc(NC(=O)[C@H](Cc2ccccc2)NC(=O)c2ccc(N)c(OCc3ccccc3)c2)ccc1C(=O)NCC(=O)O	Eukaryotic translation initiation factor 4E, with eIF4G (EIF4E, Homo sapiens, UniProt P06730)	fluorescence anisotropy competition		concentration not given	no inhibition
CC(C)Oc1cccc(NC(=O)CCCN2C(=O)c3ccccc3C2=O)c1	Indole-3-acetic acid-amido synthetase GH3.15 (GH3.15, Arabidopsis thaliana, UniProt Q8GZ29)	IBA-Gln formation, inhibitor		concentration not given	no inhibition
CC(C)Cn1cc(-c2nc(Nc3ccc(OCCCCCCC(=O)NO)cc3)ncc2F)nn1	CDK6 with cyclin D3	enzyme activity, inhibitor, TR-FRET		50 nM	4.99%
OC[C@H]1O[C@@H](Oc2cccc3cccnc23)[C@H](O)[C@@H](O)[C@H]1O	Adhesin FmlH lectin domain	binding to desialylated mucin, ELISA competition	UPEC UTI89	100 µM	95%
COC(CO)c1ccc(O)c(O)c1 (stereo not shown)	alpha-glucosidase Saccharomyces cerevisiae			1000 µM, added: sucrose	< 10%
CSCC[C@H](N)C(=O)N[C@@H](CC(C)C)C(=O)N[C@@H](Cc1ccccc1)C(=O)N[C@@H](CO)C(=O)NCC(=O)N[C@@H](CCC(N)=O)C(=O)N[C@H](C(=O)N[C@@H](CC(C)C)C(=O)O)C(C)C	ACE	enzyme activity, inhibitor, HPLC		1330 µg/mL	72.2%
C[C@@H](N)C1CCN(S(=O)(=O)c2cccc3c(=O)[nH]ccc23)CC1	Rho-associated protein kinase 2 (ROCK2, Homo sapiens, UniProt O75116)	cell-free assay, competition with immobilised ligand		10 µM	> 95%
CCCCc1ccc(N2C(=O)/C(=N\NC(=N)N)c3cc(C)ccc32)cc1	mrcB	enzyme activity, inhibitor, HPLC		50 µM	88%

A few entries again:
Structure (SMILES)	target	test	system	setting	inhibition
CCOCn1cc(F)c(=O)n(C(=O)c2cccc(C(=O)Oc3cc(OC(=O)c4cc(OC(=O)CC)nc(OC(=O)CC)c4)c(Cl)cn3)c2)c1=O	Dihydropyrimidine dehydrogenase [NADP(+)] (Dpyd, Rattus norvegicus, UniProt O89000)	5-FU degradation, inhibitor	heat-denatured rat liver extract	concentration not given	no inhibition
N#Cc1ccccc1O[C@@H]1O[C@H](CO)[C@H](O)[C@H](O)[C@H]1O	Adhesin FmlH lectin domain	binding to desialylated mucin, ELISA competition	UPEC UTI89	100 µM	95%
CN(C1COC1)C(C)(C)/C=C(\C#N)C(=O)N1CCC[C@H]1Cn1nc(-c2ccc(Oc3ccccc3)cc2F)c2c(N)ncnc21	Tyrosine-protein kinase BTK (BTK, Homo sapiens, UniProt Q06187)			1 µM, mean	> 90%
CC(=O)NCC(=O)N[C@@H](CC(=O)O)C(=O)N[C@@H](Cc1ccc(O)cc1)C(=O)N[C@@H](CO)C(=O)N[C@@H](Cc1c[nH]cn1)C(=O)N[C@H]1CSSC[C@@H](C(=O)N[C@H](C(=O)N[C@@H](Cc2ccc(O)cc2)C(=O)N2CCC[C@H]2C(=O)N[C@@H](CC(=O)O)C(=O)N2CCC[C@H]2C(=O)N[C@@H](CCC(=O)O)C(=O)NCC(=O)NCC(=O)NCC(N)=O)[C@@H](C)O)NC(=O)[C@H](CCCCN)NC(=O)[C@H](Cc2c[nH]c3ccccc23)NC(=O)[C@H](Cc2c[nH]c3ccccc23)NC(=O)[C@@H]2CCCN2C(=O)[C@H](Cc2ccc(O)cc2)NC(=O)[C@H](Cc2ccc(O)cc2)NC(=O)[C@H](CCCNC(=N)N)NC(=O)[C@H](CC(C)C)NC(=O)[C@@H]2CCCN2C(=O)[C@H](CO)NC1=O	ACE			10 µM	15 ± 2%
